Measurements gathered from unrelated publications.
A part holds a random share of what one study measured.

Series 1
Target: RING finger protein unkempt homolog, zinc fingers 1-6, GST-SBP tag (UNK, Homo sapiens, UniProt Q9C0B0, residues 30-357)
Method: RNA Bind-n-Seq
Form: RNA
Medium: in vitro
Tested at: not given
Notes: RNA with constant flanks, human and mouse sites, ends assumed
Reference: input RNA pool
Reading: higher = stronger binding
Constant ends, left off below: GGGAGUUCUACAGUCCGACGAUC … CAACAGAGGAUUGAGCAUCA
Target sequence (chain): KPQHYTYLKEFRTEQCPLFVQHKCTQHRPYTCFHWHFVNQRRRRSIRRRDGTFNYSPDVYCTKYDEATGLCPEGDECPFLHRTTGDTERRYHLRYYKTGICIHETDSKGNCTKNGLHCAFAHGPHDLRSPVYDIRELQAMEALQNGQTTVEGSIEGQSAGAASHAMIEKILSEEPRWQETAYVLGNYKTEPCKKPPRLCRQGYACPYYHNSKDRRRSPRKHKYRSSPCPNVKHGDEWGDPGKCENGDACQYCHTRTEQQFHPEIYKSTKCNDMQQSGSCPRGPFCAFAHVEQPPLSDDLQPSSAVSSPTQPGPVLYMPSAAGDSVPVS
Strand | bound/input enrichment
GCUGGCCCAAGGACUCUAAAUUUCAAAAUAAACAGAGAAUUAUUAACAAAGGCAGUAUUGCAACAAGUUACUGAAGAUGGCUGUAAAUAUGGGUUAAAAAGUGAACUUUUCUCAGAUCUU | 0.28 ratio
GUAAAGGAAGAUGAAGAAGAAGUUUCAGAUAAGGGCAGUGAUUCUGAAGAAGAAGAAACCAAUAGAGAUUCCCAAAGUGAGAAAGAUGAUGGUAGUGACAGAGACUCUGAUAGAGAGCAA | 0.992 ratio
AACCUCACAGAUGAAACAGGAGUAUCUGCUGUUCAGUUUGGAAACUCCUCUACGUCAGUAUUAGCUACGUUAGCUGCCUUAGCUGAAGCUUCUGCCCCAUUGUCCAAUUCUUCAGAAACU | 0.218 ratio
ACUGAAACAGUACCAGCAAGUCAUGAGAUUUUUUAGUAAAGAUGAGAAAGAUGGUUGAAGAAAAUUAGUGCAUAAUUUCUCAGUGAAUAAAGUUGUAGCUCUCAUAUACUAAAUAGACAA | 3.3 ratio
UCGUCGCUGAUGCUUGCUCUGUCAAGGCACAGCCUAUUGUCUCCUUUGCUCAGUGUGACAUCAUUCAGACGCUUCUACAGAGGUGACAGCCCAACAGAUUCCCAAAAGGACAUGAUUGAA | 0.129 ratio
UUUCCGAUGACCAUGGAUGAAAAAUAUGUAAACAGCAUUUGGGACCUUCUGAAAAAUGCAAUUCAAGAAAUCCAGCGUAAGAAUAACAGUGGUCUUAGUUUUGAGGAGCUCUAUAGAAAU | 1.11 ratio
AAGAAUGAAGUGGACCUGGUUGUUCACUCCUUGAAGGACCUGCCCACUGUGCUUCCUCCUGGCUUCACCAUCGGAGCCAUCUGCAAGCGGGAAAACCCUCAUGAUGCUGUUGUCUUUCAC | 0.058 ratio

Series 2
Sequence: PPVIIKYIIINRF
Read-out: peptide binding
Form: peptide
Reading: direction not given
tested on | method | organism | strain | notes | enrichment score
human cyclin A2 | competitive growth sequencing | Saccharomyces cerevisiae | cyclin A2-Cln2 fusion strain | mutational scanning library 2 | -0.0438
Saccharomyces cerevisiae | yeast competitive growth sequencing |  | cyclin F-Cln2 fusion | library 2 | 0.056
Saccharomyces cerevisiae | yeast competitive growth sequencing |  | cyclin E2-Cln2 fusion | library 2 | -0.435

Series 3
Target: RNA binding protein fox-1 homolog 2, RRM domain, GST-SBP tag (RBFOX2, Homo sapiens, UniProt O43251-10, residues 100-194)
Method: RNA Bind-n-Seq
Form: RNA
Medium: in vitro
Tested at: 365 nM
Notes: natural RNA segment, single round, ends assumed
Reference: no-protein control
Reading: higher = stronger binding
Constant ends, left off below: GGGAGUUCUACAGUCCGACGAUC … UGGAAUUCUCGGGUGCCAA
Target sequence (chain): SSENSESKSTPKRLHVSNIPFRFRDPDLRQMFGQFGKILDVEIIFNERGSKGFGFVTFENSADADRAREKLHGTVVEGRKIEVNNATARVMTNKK
Strand | RBNS enrichment (R)
UGCCCAGGCCACACUAGUUGGCCCCAGCACUCUACCUUAGGCCCAGGCUGGCCACAGGCAGUGGGCAGCUCACUUGCUGCAGUGUCAUAGCAAUAAAAUGUGAUUCUUGG | 0.292
GGCCUUCAUCCAGGAACAGACCAACAUAAACCAGCAUCUUCUACCAGUUAGCACUGUCCUCCUGGACCAUGCUGAGGGUUGGGCCUCUCCCUCAGAGUCCUUUCUCACUG | 2.03
GUACUGCUGGACAGGCAUGUGUGCUCAAAGUACAUUGAUUGCUCAAAUAUAAGGAAAUGGCCCAAUGAACGUGGUUGUGGGAGGGGAAAGAGGAAACAGAGCUAGUCAGA | 3.68
UCUCUAUUUUUCUGCAAAGGUCAAAAGACCCUGGUGUUGGGGGCCCUUUAGAGGGUGUGCUUUGGACGCUGACCUCUUAGGGCUUUAGGACAGAGGGACGAUGUUGAGUC | 0.308
AAUGUAUAGUAUUUUAGAACAACAACAACAAAACUCAAUAAACAGUUGAUCUUGUGUGUUUGACAGUCCUUUGCCUUGCAUCCACCCUCAUGUUCACACAGCUGAUAGAC | 0.511
AAGGUCACAGAGCUCCACCACCCAUGUCCUGUGUCAACAACCCGGUCCCUGUGGCACCUGUAACUGGCCAUAGUGUCUUUCUGGUCUGUGUGUUCUUCCAGCCAGCCUUG | 0.78
AAGAAAUAGCCAACUAGUUAAAAUGUAUGAAAAGAAAACUUUCCCCUGCUGUAUUUGUUGUGUAACAUAAAUAAGCCUUCUGAGAAGCAGGGUGAAUAAAGUUUAGGGAG | 0.514
CUGGGUCCUAGCGACACCUCCUCACCCAAAUUUUCCUGUCUUCAAUAUCCUCAACAGACAAAAGAAGACAGGAAGCUUUUGGAGGCACGGGAAAAUUUUUGCUUGCUUGU | 0.828
ACCGCUGGUGGUAAGUCUCCAGGAGGAGCCCAGGGCCCUCUGCCGCAAGAAACAGUGUGAGCUACUGCCACGCUGAAAACUACCUGUGGGUUAAGGAUGUAGUUCCUUUG | 0.258
UCAGAAUAUCCAAGUCCUGUAUGUGUGUGUCAUCCUCUUGCGAUCAUUUUUACUAAUCCUAAUACUCUGCUCUAGCUUGCUUCAGAACUCCCGUGGCUUUGCUUGAUCUG | 2.59
UACUGGCCUACCCUUACCCCAUGCAUUCUUCCUGUCUGCACUGCCUGGGCCAAGGGGCAGAAACACUCUGCUCUUCUUCCCCAGGACAUUCCCAGGCUUGGGGUUUUUCU | 0.266
AAGCCUCUAAUCUCAACGCUUUGGGAGGCUGAGGCAGGAGGAUCGCUUGAGGCCAGGAGUUUGAGACCACCUUGGGCAACAUAACGAGACCCCGUCUCUACAAAAAAAAU | 0.224

Series 4
Target: Histone acetyltransferase KAT6A, both winged helices, GST fusion (KAT6A, Homo sapiens, UniProt Q92794, residues 1-181)
Method: protein binding microarray
Form: double-stranded DNA, one strand shown
Medium: in vitro
Tested at: not given
Notes: 8-mer, flanks averaged, mean of 2 arrays, mostly near background
Reference: not given
Reading: higher = stronger binding
Construct (chain): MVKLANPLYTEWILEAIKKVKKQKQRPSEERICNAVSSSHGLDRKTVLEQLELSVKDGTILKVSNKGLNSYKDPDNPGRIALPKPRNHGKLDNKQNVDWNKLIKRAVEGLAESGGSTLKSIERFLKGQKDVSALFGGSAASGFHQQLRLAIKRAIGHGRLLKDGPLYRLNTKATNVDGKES
Strand | E-score
GGCAAGAC | 0.123
AACTGAGG | -0.00451
GCACCTCA | -0.0862
CGACAAAG | -0.0233
ACGTCGAG | -0.191
ATCGACCG | 0.17
CTATCGGC | 0.227
AGAGCGTC | 0.0158
AGGCATAA | -0.117
CAATCGGG | 0.1
CTACGACA | -0.0562
TAGCGACA | 0.0532
AAGCTTGC | -0.00762
TCCACTCA | -0.225
TAGGGTGA | -0.267
CCTCGCCC | -0.0204
ATAACTTA | -0.123

Series 5
Target: Interferon regulatory factor 5, full length, phosphomimetic (IRF5, Homo sapiens, UniProt Q13568-2, residues 1-514, S451D/S453D/S456D/S462D)
Method: protein-binding microarray
Form: double-stranded DNA, one strand shown
Medium: in vitro
Tested at: 940 nM top
Notes: 60-bp whole probe
Added: salmon DNA 0.4 mg/ml
Reference: random background probes
Reading: higher = stronger binding
Constant ends, left off below: GCCTAGCAC … GTCTTGATTCGCTTGACGCTGCTG
Strand | fitted relative affinity [z-score]
TTAGGTCTCCTTTTCCTTTAGTGCTAG | 0.628
TTAGTTTTCAGTCTCGATTAGTGCTAG | 4.71
GACGATATCAGACTGGAGGCGTGCTAG | -0.456
TCAATTTACATTTTAGTACTGTGCTAG | 0.173
TTAGGACTGGGTCTCGGTGAGTGCTAG | 0.76
TTAGGTCTCCTTCTCGTTTAGTGCTAG | 0.687
TTAGGTTTCGACACTGCGTTAGTGCTA | 8.01
GGTCTTCTGGGCTGTTTGATCGTGCTA | 0.0317
CACCCACTCTTTCCTCACCATGTGCTA | 1.74
TTAGTACTGGGGTATCGATTAGTGCTA | 2.96

Series 6
Target: TAR DNA-binding protein 43, full length, His tag (TARDBP, Homo sapiens, UniProt Q13148, residues 1-414)
Method: RNA Bind-n-Seq
Form: RNA
Medium: in vitro
Tested at: 20 nM
Notes: 6-mer, flanks averaged, single round
Added: 150 mM KCl
Reference: input library
Reading: higher = stronger binding
Strand | 6-mer enrichment (R)
GGAUUA | 0.827
UUAUUC | 0.571
GCGGCA | 1.65
AUACUC | 0.549
CUGGAC | 0.834
UUGGGA | 1.75
GUCAGG | 1.7
UGCUCU | 0.581
GAGCCU | 0.829
AGGACU | 0.83
UCCUCA | 0.559
AGGGCA | 2.38
UAUCAC | 0.565
UAUAGA | 0.653
UGGAUU | 0.69
UCCGGG | 1.79
CGCAGG | 1.64
CAGCGU | 0.874
CCUAUC | 0.574
CAGUGU | 0.911
CAGUCU | 0.586
AAAAUU | 0.65
AAUAAA | 0.93
ACCCAG | 0.718

Further values, each from its own experiment
Substance | target | assay | test system | conditions | how to read | measurement | value
PhoQ, residues 284 288 289 292 302 303 GANMMA | PhoP, residues 12 14 15 18 19 NHTVL (Escherichia coli, UniProt P23836) | Sort-seq, refers to: YFP reporter | E. coli | PhoQ-PhoP variant library, added: 10 µM Mg2+ | reference: high Mg2+ state, higher = stronger signaling | fold induction | 4.02

For quick reference, copied from above (series 5):
Strand | fitted relative affinity [z-score]
GACGATATCAGACTGGAGGCGTGCTAG | -0.456
TCAATTTACATTTTAGTACTGTGCTAG | 0.173
TTAGGACTGGGTCTCGGTGAGTGCTAG | 0.76
TTAGGTCTCCTTCTCGTTTAGTGCTAG | 0.687
TTAGGTTTCGACACTGCGTTAGTGCTA | 8.01
GGTCTTCTGGGCTGTTTGATCGTGCTA | 0.0317
